# Experimental data from different studies.
# A part holds a random share of what one study measured.

# Series 1
# Target: RNA binding protein fox-1 homolog 2, RRM domain, GST-SBP tag (RBFOX2, Homo sapiens, UniProt O43251-10, residues 100-194)
# Technique: RNA Bind-n-Seq
# Form: RNA
# Matrix: in vitro
# Concentration: 365 nM
# Notes: natural RNA segment, single round, ends assumed
# Relative to: no-protein control
# Direction: higher = stronger binding
# Target sequence (chain): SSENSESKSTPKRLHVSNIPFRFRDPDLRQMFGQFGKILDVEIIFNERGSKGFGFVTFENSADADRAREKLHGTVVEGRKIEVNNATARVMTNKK
Strand,RBNS enrichment (R)
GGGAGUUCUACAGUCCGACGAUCAGAGCUGGGCCCCCUGAGCCCACUGGGUCUUCAGGGUGCACUGGAAGCUGGUGUUCGCUGUCCCCUGUGCACUUCUCGCACUGGGGCAUGGAGUGCCCAUGCAUACUCUGUGGAAUUCUCGGGUGCCAA,0.212
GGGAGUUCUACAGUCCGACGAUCUCUAGUUAGUACUGGCAGGACAUACCCUUAACCAAAACAUGGAAUUUGGCACCUUUUCCUCACUUGUAGCUUCCCUAUGAUAGCUGAGCUAACCCUAAGGUUUCCUAGCUUGGAAUUCUCGGGUGCCAA,0.283
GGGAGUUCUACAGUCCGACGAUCUUAGAUGACCUUUUUUUCUUAUAAUAUUUGCAAGUGACAAGUUUGAAAACAAAGCAAGAUCAGUGCAGAGAAGCCACAUGACAUGUUGGGUGACAGAUUGGUCAUUUAUUUGGAAUUCUCGGGUGCCAA,1.11
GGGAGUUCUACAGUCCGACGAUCUUGCAGCACAUGAUGCCAGAAAUAGCACUGAAUCAAGAAAAUAGCCAUUGCGGAGCUGCCCUCUUGAGUCUUUCUGUCCAUCCCAUUCUAUUCUGUACUGUGACUUUAGUUGGAAUUCUCGGGUGCCAA,1.02
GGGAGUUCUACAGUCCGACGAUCUGGAAUAACCAUGGAGCAAAGAGAACAGAAUCCCAUUCCAAGAGUCCCUCUCUCUCCAACAUCUUGAAGUUUGCAAUUUAGACAGCUCUUUGUUUUCUAAUGCAAUAUGUUGGAAUUCUCGGGUGCCAA,0.476
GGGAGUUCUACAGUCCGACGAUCAAAGGAAGGUACAGAUGUUUACAGUGGUGCCCCAGGUGACUCGUUCUCACCACAACAAAAGCAACUAAUUGGAAACUAGAUGUGUUCAAUAAUAGAUUUCCUCUUUUUUGUGGAAUUCUCGGGUGCCAA,0.461
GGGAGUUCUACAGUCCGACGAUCACCUCAAGGCUUUUUUCUUCUUAUUGUAAAUACACUUUACGUGAAUACAGUCUAAGUGAAGAAAAUAAAUAAAAGGAAGAGGUUUAUAACUUGCUCUAUAUCUGUACAGAUGGAAUUCUCGGGUGCCAA,0.328
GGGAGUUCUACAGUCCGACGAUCCUCACCAUUAUUCAAGAUUGGGACUCGCUUCCCAGUCGACACUCUGCCCUGCCUGUCAUUGCUGCAAAGAGCUGCUGCUUUGCCAACCUAAGCAAAGAAAAUACGGCUUCUGGAAUUCUCGGGUGCCAA,0.467
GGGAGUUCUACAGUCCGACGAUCGCAAAAUGUGUCUCAUGUUUCGCAACUCUUUUUUUCCCCCUCGCUCCCGCCUACCCCGUCGGCAUUUUCUUCUUCCACCAGCUUUUACUGAACUUUUUGGCACUGCUUUGUGGAAUUCUCGGGUGCCAA,1.4

# Series 2
# Target: Histone acetyltransferase KAT6A, winged helix 1, GST fusion (KAT6A, Homo sapiens, UniProt Q92794, residues 1-85)
# Technique: protein binding microarray
# Form: double-stranded DNA, one strand shown
# Matrix: in vitro
# Concentration: not given
# Notes: 8-mer, flanks averaged, mean of 2 arrays, mostly near background
# Relative to: not given
# Direction: higher = stronger binding
# Residues (chain): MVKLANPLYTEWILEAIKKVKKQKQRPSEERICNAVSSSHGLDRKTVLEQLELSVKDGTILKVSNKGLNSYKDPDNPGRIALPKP
Strand,E-score
CAGTACCG,0.294
TAGAAACA,-0.119
CGGACCGC,0.338
GATAATAA,-0.0332
GGGACGAC,0.0363
ATCCGGCC,0.24
TGATCTAA,-0.276
CATCGTAC,-0.0688
GGTCTGGA,-0.0264
GAATGGAC,-0.238
ACCTAAGT,-0.12
ATGAAAAG,-0.108
CCCAGGGC,-0.0526
AGATATCG,-0.122
CGCCACCC,0.225
AGGATGGA,-0.166
GCCAAATA,-0.115
AGCAGTCG,-0.0717
CTCTCACA,-0.107
CATATAGG,-0.0794
GTTCCGCA,0.177
CAGTTCGG,0.145
GAGTACAA,-0.116
GGAACCGA,-0.0192
CTGACGTC,-0.124

# Series 3
# Target: Sal-like protein 4, full length isoform B (SALL4, Homo sapiens, UniProt Q9UJQ4-2, residues 1-616)
# Technique: universal PBM
# Form: double-stranded DNA, one strand shown
# Matrix: in vitro
# Concentration: not given
# Notes: 8-mer, flanks averaged, mean of replicates
# Direction: higher = stronger binding
Strand,E-score
ACAATTGA,0.146
CGGCTGCA,-0.371
GGTGGGAC,-0.137
ATTCCGTA,0.0901
CCCGGTAA,-0.176
ATCAGCTA,0.0375
CCCGTATA,0.03
ACTGCTCT,-0.0468
CAATGCAC,0.0637
CACGAAAA,0.157
AGTAGCCG,-0.177
ACAGATAA,0.15
TAAGCAGA,-0.0529
GTATCAAA,0.229
ACCCCCCA,-0.162
AGAAGGCT,-0.191
CCAACAGA,-0.0023
TGGGCTAA,-0.0409
ACTGGAAA,0.0282
ACTTCGTA,-0.0866
GGTGTGAC,-0.336
GAATCGTA,0.124
TCGTCGAA,0.0573
AACGCCGC,-0.354
AGCCCTCG,-0.206

# Series 4
# Target: RING finger protein unkempt homolog, zinc fingers 1-6, GST-SBP tag (UNK, Homo sapiens, UniProt Q9C0B0, residues 30-357)
# Sequence of UniProt Q9C0B0 (30-357, looked up): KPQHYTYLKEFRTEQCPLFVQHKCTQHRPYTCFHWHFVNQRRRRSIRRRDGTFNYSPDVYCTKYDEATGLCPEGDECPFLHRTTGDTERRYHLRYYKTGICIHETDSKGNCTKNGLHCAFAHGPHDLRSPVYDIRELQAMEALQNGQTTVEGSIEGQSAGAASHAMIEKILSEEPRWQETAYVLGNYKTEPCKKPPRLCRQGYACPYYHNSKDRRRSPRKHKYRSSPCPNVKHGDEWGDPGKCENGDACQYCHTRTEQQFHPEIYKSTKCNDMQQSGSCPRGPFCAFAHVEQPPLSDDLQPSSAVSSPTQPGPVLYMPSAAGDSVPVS
# Technique: RNA Bind-n-Seq
# Form: RNA
# Matrix: in vitro
# Concentration: not given
# Notes: RNA with constant flanks, human-mouse chimeric sites, ends assumed
# Relative to: input RNA pool
# Direction: higher = stronger binding
Strand,bound/input enrichment [ratio]
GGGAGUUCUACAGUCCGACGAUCGAGUCGAUUAUGGAAACAACAAUUCGUUAUCUUGCAGCCUCAGUGUUCACUUGCUUGUGGCAAUAGCUGGGGUUUUAUAGGUUCUGGAAGGAGAACUGACGAUGAUGCUGCCGCUGCUGCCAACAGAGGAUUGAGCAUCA,0.256
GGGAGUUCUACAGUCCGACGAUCCCCCAAUACCAUUUGCAAGAGUUGGAAUGCACUCUCUUUUUUAAAAAACAUGUAUACAUUUUAGGGCUGUAGAUUUAUUUUCCUGGUUUCUUUUCCAAUUGCUGACUUUUGAGCACAGAACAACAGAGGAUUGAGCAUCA,2.02
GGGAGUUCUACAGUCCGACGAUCUUACCCGAAAAUGAAGAUGAGCUGGAGAGCACCAACAGGCGCUACACCAAGAGGGACUGCAGCACUUUCCUCAGAACUAGUGAGACGGGCAUUGUGGACCAGGUCAUGGUCACUCUCAACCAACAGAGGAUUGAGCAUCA,0.158
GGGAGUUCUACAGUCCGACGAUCCACGUGUCUGCAGUACUUGAUGUGGACUACUCUCCCACUGGGAAGGAAUUUGUGUCUGCCAGCUUUGAUAAGUCUAUUAGAAUCUUUCCUGUAGACAAGAGCCGAAGCAGGGAGGUAUAUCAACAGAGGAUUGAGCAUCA,0.316
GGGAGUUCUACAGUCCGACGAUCCUGGCCUGGCCCUCCCCAGGGGCCUCCUUUCGUAUAGUCACUGCUUCUGCAUCAGAUACUUUCAGCUCCAAGUCCUGACUGGGUGGGGCACCCAUUUCAGGCAGAAGGUUUUGGUACCCUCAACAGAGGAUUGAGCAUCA,0.294
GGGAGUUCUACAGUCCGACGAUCAAUGUGGAGUUGAGUUCGCUGGCCCGGCUUCCCAGCUUGAAUAAACUCCGGAAGUUGGAACUUAGUGACAAUAUAAUUUCUGGAGGCUUGGAAGUCCUGGCAGAGAAAUGUCCAAAUCUUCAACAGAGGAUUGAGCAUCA,0.407
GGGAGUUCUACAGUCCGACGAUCUAAGUCCAUUUGUAAGCCUUCGCUCAUAAAGUUUUAAAUUCUGGACCAAUAGUGUUUGUUUCCUGAUUAUUGUAUCCAAUACUUUGCCUAGUAUGUAACUCACUCUUCUGGAUAAAUAAACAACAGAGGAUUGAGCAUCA,2.09
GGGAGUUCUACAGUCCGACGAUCGAUAAGAAAAGCUUGUUGGAGACCCGCUUGCACAUCACUGGUAGAGACCUGAGGUGUCAAAUAGCUGAAACUUUCGGAUUUCAAGAAAAUUACAUCAAAAUUGUCAUAAAUAAGAAACAGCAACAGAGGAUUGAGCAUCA,0.474
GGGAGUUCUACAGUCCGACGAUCAAGCAACGCAAACUUGAAACAAUUCGUUAUCUUGCAGCCUCAGUGUUCACUUGCUUGGCGAUAGCAUAUUGGGAUUUUAGGUUCUGGAAGGAGAACUGACGAUGAUGCUGCCGCUGCUGCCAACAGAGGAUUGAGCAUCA,0.59
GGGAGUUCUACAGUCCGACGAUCGAAACUAUUCCUAAAGAGGAGAAAGCUGAAAAGGAAGCUCGGAGACCAUCUCUUGAGAAACAUAGAAAAGAAAAGCCUUUUAAAACCGGGAGAGGCAGAAUUUCCACUCCUGAAAGAAAACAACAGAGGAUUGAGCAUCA,0.527
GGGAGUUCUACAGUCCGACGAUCGAAUCCUACUCAGGCGGAUUUUGCAACACCAAGCUCACAGCAGCAGCUCCAUAGUCACAGUAGGGUAGUUUUGGGGCAAUAUUGCCAGGGUUUUAUUCACAUGCAGGUUUGGAAAAUGUACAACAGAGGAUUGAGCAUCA,1.22

# Repeated from above (series 3):
Strand,E-score
ACTGGAAA,0.0282
ACAATTGA,0.146
AGCCCTCG,-0.206
CAATGCAC,0.0637
ACTGCTCT,-0.0468
GTATCAAA,0.229
AGAAGGCT,-0.191
CACGAAAA,0.157
ATTCCGTA,0.0901
AGTAGCCG,-0.177
